Results gathered from unrelated publications.
Each line is one published result; not all experiments were run side by side. ± marks the error that the study gave.

`Cc1nn(-c2ccc(S(=O)(=O)N[C@H](CO)CC(C)C)cc2)c2nn3nnnc3nc12` gave a tail DNA of 58 ± 6.96% (PC-3; DNA damage, alkaline comet; 2 µM, 24 h).
`N=C(N)NCCC[C@@H]1NC(=O)[C@H](CCCCNC(=O)CC[C@H](NC(=O)CC[C@H](NC(=O)CN2CCN(CC(=O)O)CCN(CC(=O)O)CCN(CC(=O)O)CC2)C(=O)N[C@@H](CCC(=O)NCCCC[C@@H]2NC(=O)[C@@H](Cc3ccccc3)NC(=O)[C@H](CC(=O)O)NC(=O)CNC(=O)[C@H](CCCNC(=N)N)NC2=O)C(=O)NCCCC[C@@H]2NC(=O)[C@@H](Cc3ccccc3)NC(=O)[C@H](CC(=O)O)NC(=O)CNC(=O)[C@H](CCCNC(=N)N)NC2=O)C(=O)NCCCC[C@@H]2NC(=O)[C@@H](Cc3ccccc3)NC(=O)[C@H](CC(=O)O)NC(=O)CNC(=O)[C@H](CCCNC(=N)N)NC2=O)NC(=O)[C@@H](Cc2ccccc2)NC(=O)[C@H](CC(=O)O)NC(=O)CNC1=O` [indium-111 labelled] gave a tissue uptake of 8.42 ± 1.65 %ID/g (female athymic nu/nu mice, intestine; intravenous, 1 h).
The tissue uptake of `CCCC[C@H](NC(=O)COCCOCCNC(=O)CN1CCN(CC(=O)O)CCN(CC(=O)O)CC1)C(=O)N[C@H]1CC(=O)NCCCC[C@@H](C(N)=O)NC(=O)[C@H](Cc2c[nH]c3ccccc23)NC(=O)[C@H](CCCNC(=N)N)NC(=O)[C@@H](Cc2ccccc2)NC(=O)[C@H](Cc2c[nH]cn2)NC1=O` [copper-64 labelled] is reported as 1.95 ± 0.43 %ID/g (C57 mice, liver; intravenous, 0.37 MBq, 4 h).
For `Cn1c(=O)oc2ccc(-c3ccc(CC(C#N)NC(=O)C4CNCCCO4)c(F)c3)cc21` (stereo not drawn), the half-life was 21 h (human, plasma; 40 mg, single dose, fasted, mean).
`O=Cc1c(O)ccc2ccccc12`: “log2 fold change” 5.28 (HUVEC; RNA sequencing, refers to: IL13RA2; 75 µM, 24 h; relative to: DMSO).
`N=C(N)NCCC[C@@H]1NC(=O)[C@H](CCCCNC(=O)CNC(=O)CNC(=O)CNC(=O)CC[C@H](NC(=O)CNC(=O)CNC(=O)CNC(=O)CC[C@H](NC(=O)CN2CCN(CC(=O)O)CCN(CC(=O)O)CCN(CC(=O)O)CC2)C(=O)NCC(=O)NCC(=O)NCC(=O)N[C@@H](CCC(=O)NCC(=O)NCC(=O)NCC(=O)NCCCC[C@@H]2NC(=O)[C@@H](Cc3ccccc3)NC(=O)[C@H](CC(=O)O)NC(=O)CNC(=O)[C@H](CCCNC(=N)N)NC2=O)C(=O)NCC(=O)NCC(=O)NCC(=O)NCCCC[C@@H]2NC(=O)[C@@H](Cc3ccccc3)NC(=O)[C@H](CC(=O)O)NC(=O)CNC(=O)[C@H](CCCNC(=N)N)NC2=O)C(=O)NCC(=O)NCC(=O)NCC(=O)NCCCC[C@@H]2NC(=O)[C@@H](Cc3ccccc3)NC(=O)[C@H](CC(=O)O)NC(=O)CNC(=O)[C@H](CCCNC(=N)N)NC2=O)NC(=O)[C@@H](Cc2ccccc2)NC(=O)[C@H](CC(=O)O)NC(=O)CNC1=O` [indium-111 labelled] has a tissue uptake of 2.07 ± 0.24 %ID/g (female athymic nu/nu mice, spleen; intravenous, 111 kBq, 72 h).
`C=C1CC[C@H](OCCCNC(=O)CCOCCOCCOCCOCCOCCOCCOCCOCCOCCOCCOCCOCCOCCOCCOCCOCCOCCOCCOCCOCCOCCOCCOCCOCCOCCOCCOCCOCCOCCOCCOCCOCCOCCOCCOCCOCCNC(=O)CCN2C(=O)CC(SC[C@H](NC(=O)[C@H](Cc3ccccc3)NC(=O)[C@H](CC(N)=O)NC(=O)[C@H](Cc3c[nH]cn3)NC(=O)[C@@H](NC(=O)[C@H](CC(=O)O)NC(=O)[C@H](CCC(N)=O)NC(=O)[C@H](CC(C)C)NC(=O)[C@H](CCCCN)NC(=O)[C@H](CCCCN)NC(=O)[C@H](CCCNC(=N)N)NC(=O)[C@H](CC(C)C)NC(=O)[C@H](Cc3c[nH]c4ccccc34)NC(=O)[C@H](CCC(=O)O)NC(=O)[C@@H](NC(=O)[C@H](CCCNC(=N)N)NC(=O)[C@H](CCC(=O)O)NC(=O)[C@H](CCSC)NC(=O)[C@H](CO)NC(=O)[C@H](CC(N)=O)NC(=O)[C@H](CC(C)C)NC(=O)[C@H](Cc3c[nH]cn3)NC(=O)[C@H](CCCCN)NC(=O)CNC(=O)[C@H](CC(C)C)NC(=O)[C@H](CC(N)=O)NC(=O)[C@H](Cc3c[nH]cn3)NC(=O)[C@H](CCSC)NC(=O)[C@H](CC(C)C)NC(=O)[C@H](CCC(N)=O)NC(=O)[C@@H](NC(=O)[C@H](CCC(=O)O)NC(=O)[C@H](CO)NC(=O)[C@@H](NC(=O)[C@@H](N)CO)C(C)C)[C@@H](C)CC)C(C)C)C(C)C)C(N)=O)C2=O)C/C1=C/C=C1\CCC[C@]2(C)[C@@H]([C@H](C)CCCC(C)(C)O)CC[C@@H]12` (stereo partly drawn) gave a dose-normalized Cmax of 1 (cynomolgus monkey; subcutaneous, 0.7 µg/kg every other day, 89 days; relative to: reference dose).
With `Cc1cc(-c2ccc(NC(=O)[C@H](CCCCNC(=O)CCOCCOCCC(=O)N[C@H](Cc3ccccc3)C(=O)N[C@H]3CSSC[C@@H](C(=O)N[C@H](C(=O)O)[C@@H](C)O)NC(=O)[C@H]([C@@H](C)O)NC(=O)[C@H](CCCCN)NC(=O)[C@@H](Cc4c[nH]c5ccccc45)NC(=O)[C@H](Cc4ccc(O)cc4)NC3=O)NC(=O)CN3CCN(CC(=O)O)CCN(CC(=O)O)CCN(CC(=O)O)CC3)c(C)c2)ccc1N=Nc1ccc2c(S(=O)(=O)O)cc(S(=O)(=O)O)c(N)c2c1O` [lutetium-177 labelled] the effective half-life was 153 ± 50 h (patients with metastatic NETs, lymph node metastases; intravenous).
Under “singlet oxygen quantum yield”, `CC1=C(I)C(C)=[N+]2C1=C(c1ccc(OCCn3cc(CNC(=O)CSC[C@H](NC(=O)c4ccc(-c5nnc(C)nn5)cc4)C(=O)N[C@H](CCCNC(=N)N)C(=O)N[C@@H](CC4CCCCC4)C(=O)N[C@H](CCCNC(=N)N)C(=O)N[C@@H](CC4CCCCC4)C(=O)N[C@H](CCCNC(=N)N)C(=O)N[C@@H](CC4CCCCC4)C(=O)N[C@H](CCCNC(=N)N)C(N)=O)nn3)cc1)c1c(C)c(I)c(C)n1[B-]2(F)F` is recorded as 0.56 (1 µM, together with: DPBF, 525 nm light; relative to: rose bengal, erythrosine B).
For `Cc1cc(-c2ccc(NC(=O)[C@H](CCCCNC(=O)CCN3C(=O)CC(SCCC(=O)N[C@H](Cc4ccccc4)C(=O)N[C@H]4CSSC[C@@H](C(=O)N[C@H](C(=O)O)[C@@H](C)O)NC(=O)[C@H]([C@@H](C)O)NC(=O)[C@H](CCCCN)NC(=O)[C@@H](Cc5c[nH]c6ccccc56)NC(=O)[C@H](Cc5ccc(O)cc5)NC4=O)C3=O)NC(=O)CN3CCN(CC(=O)O)CCN(CC(=O)O)CCN(CC(=O)O)CC3)c(C)c2)ccc1N=Nc1ccc2c(S(=O)(=O)O)cc(S(=O)(=O)O)c(N)c2c1O` (stereo partly drawn) [lutetium-177 labelled], the initial uptake was 4.5 % injected activity (patients with metastatic NETs, lymph node metastases).
`CN1C(=O)[C@@H](Cc2ccc(O)cc2)NC(=O)CNC(=O)[C@H](Cc2ccc3ccccc3c2)NC(=O)[C@H](CCCNC(=N)N)NC(=O)[C@H]1CCCNC(=O)c1ccc(CNC(=O)CN2CCN(CC(=O)O)CCN(CC(=O)O)CCN(CC(=O)O)CC2)cc1` [gallium-68 labelled]: “time-integrated activity coefficient” 0.015 ± 0.005 MBq-h/MBq (adult reference man, from C57BL/6 mice data, heart wall; dose not given).
`NS(=O)(=O)Nc1ncnc(OCCOc2ncc(Br)cn2)c1-c1ccc(Br)cc1` has a Km of 2.2 ± 0.2 µM (Eadie-Hofstee plot, refers to: compound formation; male Sprague-Dawley rat, liver microsomes; 1500 mg/kg daily, 4 weeks).

Repeated from above:
`CN1C(=O)[C@@H](Cc2ccc(O)cc2)NC(=O)CNC(=O)[C@H](Cc2ccc3ccccc3c2)NC(=O)[C@H](CCCNC(=N)N)NC(=O)[C@H]1CCCNC(=O)c1ccc(CNC(=O)CN2CCN(CC(=O)O)CCN(CC(=O)O)CCN(CC(=O)O)CC2)cc1` [gallium-68 labelled]: “time-integrated activity coefficient” 0.015 ± 0.005 MBq-h/MBq (adult reference man, from C57BL/6 mice data, heart wall; dose not given).
